Experimental data of several laboratories.
Protocols differ between the studies behind these lines. ± gives the spread as reported.

CC[C@H](C)[C@@H]1NC(=O)[C@H](C)NC(=O)[C@H](CCCNC(=N)N)NC(=O)[C@H](CCCNC(=N)N)NC(=O)[C@H](CC(N)=O)NC(=O)[C@H](CCCNC(=N)N)NC(=O)[C@H](C)NC(=O)[C@H](C(C)C)NC(=O)[C@H]([C@@H](C)CC)NC(=O)[C@H](C(C)C)NC(=O)[C@@H](NC(=O)[C@H](CCCCN)NC(=O)[C@@H](N)CCCNC(=N)N)CSSC[C@@H](C(=O)N[C@@H](CCCNC(=N)N)C(=O)O)NC(=O)[C@H](CC(C)C)NC(=O)[C@H]([C@@H](C)CC)NC1=O — single disulfide form (LC-MS; PBS; 0.1 mg/mL): 100%
COc1ccc(/C=C/c2ccc(-c3ccc(C)cn3)nc2)cc1 — fluorescence quantum yield (CHCl3; together with: quinine bisulfate reference): 0.36
Cc1ccc(/N=N/c2c(O)ccc3ccccc23)c(C)c1 — freeze-thaw stability deviation (rat whole blood; 16.0 µg/L, freeze-thaw cycle 3): 0.9%
C[Si](C)(C)C[C@H](CN)CC(=O)O — performance time (neuromuscular coordination; Wistar rat male; oral, 100 mg/kg, 2 h): 180 s
CCCC[C@H](NC(=O)CNC(=O)CNC(=O)CN1CCN(CC(=O)O)CCN(CC(=O)O)CCN(CC(=O)O)CC1)C(=O)N[C@H]1CC(=O)NCCCC[C@@H](C(N)=O)NC(=O)[C@H](Cc2c[nH]c3ccccc23)NC(=O)[C@H](CCCNC(=N)N)NC(=O)[C@@H](Cc2ccccc2)NC(=O)[C@H](Cc2c[nH]cn2)NC1=O [gallium-67 labelled] — tumour to tissue ratio (female C57 mice, B16/F1 melanoma; intravenous, 0.037 MBq, 2 h; reference: tumour over kidney): 3.01
N#Cc1ccc(-c2cc(=O)c3ccc4[nH]c(C(F)(F)F)nc4c3o2)cc1 — Tmax (ICR mice, plasma; intravenous, 2 mg/kg): ≤ 5 min
C[C@H](NC(=O)c1ccc2c(c1)C(=O)OC21c2ccc(O)cc2Oc2cc(O)ccc21)C(=O)N[C@@H](CCCCN)C(=O)N[C@@H](C)C(=O)N[C@@H](CCCCN)C(=O)N[C@@H](C)C(=O)N[C@@H](CCCCN)C(=O)N[C@@H](C)C(=O)N[C@@H](CCCCN)C(=O)N[C@@H](C)C(=O)N[C@@H](CCCCN)C(=O)N[C@@H](C)C(=O)N[C@@H](CCCCN)C(=O)N[C@@H](C)C(=O)N[C@@H](CCCCN)C(=O)N[C@@H](C)C(=O)N[C@@H](Cc1ccccc1)C(=O)N[C@@H](C)C(=O)N[C@@H](Cc1ccccc1)C(=O)N[C@@H](C)C(=O)N[C@@H](Cc1ccccc1)C(=O)O — uptake ratio (bovine cartilage, 90% GAG depleted; 30 µM, 24 h; reference: hydrophilic counterpart): 6.5 fold
[11CH3]Nc1ccc(-c2nc3ccc(O)cc3o2)cn1 — radioligand metabolised (AD patients and controls, arterial plasma; 5 min): ~50%
CC(=O)OC[C@H]1O[C@@H](Sc2sc(C(=O)c3ccc(C)cc3)c(N)c2-c2nc3ccccc3s2)[C@H](OC(C)=O)[C@@H](OC(C)=O)[C@H]1OC(C)=O — maximum nontoxic concentration (DMEM; 72 h): 100 µg/mL
CC(C)CCCC(C)CCCC(C)CCO[C@@H]1O[C@H](CO)[C@@H](O[C@H]2O[C@H](CO)[C@@H](O)[C@H](O)[C@H]2O)[C@H](O)[C@H]1O (stereo partly drawn) — equilibrium surface tension (dynamic surface tension; 0.0036 mmol/L): 41.4 mN/m
COC(=O)C1OC(Oc2c(-c3ccccc3)oc3cc(O)c(O)c(O)c3c2=O)C(O)C(O)C1O (stereo not drawn) — organ weight (BALB/c mouse, liver; 2 mg/kg): 3.6 ± 0.7 g
Cc1cc2c(cc1C1(c3ncc(C(=O)O)cn3)CC1)C(C)(C)CCC2(C)C — blood cholesterol (Sprague-Dawley rat, male; oral, 100 mg/kg, 2 h, sesame oil vehicle): 81 ± 6.5 mg/dL
N=C(N)NCCC[C@@H]1NC(=O)[C@H](Cc2c[nH]c3ccccc23)NC(=O)[C@@H](CC2CCCCC2)NC(=O)[C@@H]2CCCN2C(=O)[C@@H](NC(=O)CCc2ccccc2)CCCNC1=O — elimination rate constant (C57BL/6J mice, spinal cord; intravenous, 1 mg/kg, two-compartment model): 0.000406 s⁻¹
C[C@H](Oc1cc(-c2cnn(C3CCN(CC[18F])CC3)c2)cnc1N)c1c(Cl)ccc(F)c1Cl — tracer uptake (PET imaging; nude mouse, liver; iv, 30 min post injection): 4.9 ± 1.9 %ID/cc
CC/C=C\C/C=C\C/C=C\C/C=C\C/C=C\CCCCOC(CC)C(=O)O (stereo not drawn) — tissue concentration (14C radiolabel; Wistar rats male, liver; oral, 100 mg/kg, 8 h): 145 µg/g
CC(C)C[C@H](NC(=O)C[C@H](O)[C@H](CC(C)C)NC(=O)[C@H](Cc1c[nH]cn1)NC(=O)CNC(=O)[C@@H](NC(=O)[C@H](C)NC(=O)[C@H](Cc1c[nH]c2ccccc12)NC(=O)[C@H](CCC(N)=O)NC(=O)[C@@H](Cc1ccccc1)NC(=O)CCNC(=O)CCNC(=O)CN1CCN(CC(=O)O)CCN(CC(=O)O)CCN(CC(=O)O)CC1)C(C)C)C(N)=O [lutetium-177 labelled] — absorbed dose (MIRD; mouse PC-3 xenograft, pancreas; intraperitoneal, 50 MBq, with PA): 4.8 Gy
C[C@H](NC(=O)COC(=O)[C@H](C)NC(=O)CO)C(=O)O — depolymerization half-life (water; pH 5, 65 °C): 49.2 min
COc1cc2c(cc1OC)CN(CCCCn1ccc3cc(OCC[18F])ccc31)C2 — uptake (ICR mice, male, small intestine; intravenous, 60 min): 18.1 ± 1.2 %ID/organ
O=C(O)C1CN(Cc2ccc(-c3noc(-c4ccc(OCC[18F])c(C(F)(F)F)c4)n3)cc2)C1 — tracer uptake (rat, brain; intravenous, 1 h): 0.017 %ID/g
Cc1ccc(NCC(=O)N2CCCCC2)cc1S(=O)(=O)N1CCOCC1 — kinetic solubility (water): > 250 µM
Cn1c(=O)oc2ccc(-c3ccc(CC(C#N)NC(=O)C4CNCCCO4)c(F)c3)cc21 (stereo not drawn) — subjects with adverse event (item: blood triglycerides increased; human; 60 mg, treatment-related, single dose, fasted): 16.7%
C#CCOc1ccc(/C=C2\SC(=O)N(CC(=O)NCc3ccccc3)C2=O)cc1 — correlation volume (inverse Kirkwood-Buff integrals; binary solvent mixture; concentration not given, 298.15 K, mole fraction x1 0.45): 3760 cm³/mol
CC(C)c1cnc(-c2cc(Cl)ccc2F)cc1Nc1ccncc1C(=O)NC(CO)CO — grade 3 anaemia incidence (human, advanced solid tumour; oral, dose not given, phase I monotherapy): 9.5%
CC(C)C[C@@H](NC(=O)[C@H](NC(=O)[C@H]1CCCN1)[C@H](C)O)C(=O)N[C@H](Cc1c[nH]cn1)C(=O)N[C@@H](C(=O)N[C@H](Cc1c[nH]cn1)C(=O)N[C@H](CC(N)=O)C(=O)N[C@H](CCCNC(=N)N)C(=O)N[C@H](CCCNC(=N)N)C(=O)N[C@H](CCCNC(=N)N)C(=O)N[C@H](CCCNC(=N)N)C(=O)N[C@H](CCCNC(=N)N)C(N)=O)[C@H](C)O — apparent half-life (Beagle dog, CSF; oral, 50 mg/kg, last 2 time points): 119 ± 37 h
NC(=O)c1cccnc1.O.O=c1[nH]cc(F)c(=O)[nH]1.O=c1[nH]cc(F)c(=O)[nH]1.O=c1[nH]cc(F)c(=O)[nH]1 — CL/F (rat, plasma; oral, 0.06 mmol/kg): 71.2 mL/min/kg
CCC(=O)NC1CC=C(c2cc3c(Nc4cc5ncsc5cc4F)ncnc3s2)CC1 (racemic) — intrinsic clearance (human liver microsomes; 1 µM): < 12 mL/min/g protein
COC(=O)c1ccc(/C=N/NS(=O)(=O)c2ccc(OC)c(OC)c2)cc1 — chemical stability (buffer; pH 2, 37 °C): unstable
Cc1cn(CC(=O)N[C@@H](Cc2ccccc2)C(=O)N[C@@H](Cc2ccccc2)C(=O)N[C@H]2C(O)O[C@H](CO)[C@@H](O)[C@@H]2O)c(=O)[nH]c1=O (stereo partly drawn) — pH of hydrogelation (water; 3.0 wt%, pH-triggered gelation): ~8.5
COC(=O)c1ccc(-c2cn(Cc3cc(Cl)ccc3O[11CH3])nn2)cc1 — distribution volume (PET, two-tissue compartment model; rhesus monkey, brain Midbrain; dose not given): 0.719 mL/cm³
CC[C@H](C)[C@H](NC(=O)[C@H](CC(C)C)NC(=O)[C@H](Cc1c[nH]c2ccccc12)NC(=O)[C@H](C)NC(=O)[C@@H](NC(=O)[C@H](Cc1ccccc1)NC(=O)[C@H](CC(=O)O)NC(=O)[C@H](CCCNC(=N)N)NC(=O)[C@H](C)NC(=O)[C@H](C)NC(=O)[C@H](CC(C)C)NC(=O)[C@H](C)NC(=O)[C@H](CC(=O)O)NC(=O)[C@H](CC(C)C)NC(=O)[C@@H](NC(=O)[C@@H](NC(=O)[C@H](C)NC(=O)[C@H](CC(C)C)NC(=O)[C@H](CCC(=O)O)NC(=O)[C@H](CO)NC(=O)[C@H](CO)NC(=O)[C@H](Cc1ccccc1)NC(=O)[C@@H](NC(=O)CNC(=O)[C@H](CCC(=O)O)NC(=O)CNC(=O)[C@@H](N)Cc1c[nH]cn1)[C@@H](C)O)[C@@H](C)O)[C@@H](C)CC)[C@@H](C)CC)C(=O)N[C@@H](C)C(=O)N[C@H](C(=O)N[C@@H](CCCCN)C(=O)N[C@H](C(=O)N[C@H](C(=O)N[C@@H](CC(=O)O)C(=O)N[C@@H](CCCCN)C(=O)O)[C@@H](C)O)[C@@H](C)CC)[C@@H](C)O — AUCinf (immunoaffinity LC-MS/MS; healthy human subjects, plasma; intravenous infusion, 1 mg single dose, infused over 15 min): 2.93 nM·h
CCCC(CCC(=O)O)NC(=O)c1ccc2c(c1)OCO2 (stereo not drawn) — AUC(0-last) ratio (female Sprague-Dawley rats, plasma; oral, 200 mg/kg of parent drug; reference: 200 over 20 mg/kg dose): 11.8
Cc1cc2c(NC(=O)N[C@@H]3CC(C)(C)Oc4cc(C(F)(F)F)ccc43)c(C)ccc2cn1 — plasma concentration (Sprague-Dawley rat, male; oral, 100 µmol/kg, telemetry study): 700 ng/mL
CC(C)(O)c1ncc([S@](N)(=O)=NC(=O)Nc2c3c(cc4c2CCC4)CCC3)s1 — Tmax (human, plasma; oral, 3 mg, single dose, fasted, healthy volunteers): 45.6 min

Excerpt of the above:
COC(=O)c1ccc(-c2cn(Cc3cc(Cl)ccc3O[11CH3])nn2)cc1 — distribution volume (PET, two-tissue compartment model; rhesus monkey, brain Midbrain; dose not given): 0.719 mL/cm³
CC[C@H](C)[C@H](NC(=O)[C@H](CC(C)C)NC(=O)[C@H](Cc1c[nH]c2ccccc12)NC(=O)[C@H](C)NC(=O)[C@@H](NC(=O)[C@H](Cc1ccccc1)NC(=O)[C@H](CC(=O)O)NC(=O)[C@H](CCCNC(=N)N)NC(=O)[C@H](C)NC(=O)[C@H](C)NC(=O)[C@H](CC(C)C)NC(=O)[C@H](C)NC(=O)[C@H](CC(=O)O)NC(=O)[C@H](CC(C)C)NC(=O)[C@@H](NC(=O)[C@@H](NC(=O)[C@H](C)NC(=O)[C@H](CC(C)C)NC(=O)[C@H](CCC(=O)O)NC(=O)[C@H](CO)NC(=O)[C@H](CO)NC(=O)[C@H](Cc1ccccc1)NC(=O)[C@@H](NC(=O)CNC(=O)[C@H](CCC(=O)O)NC(=O)CNC(=O)[C@@H](N)Cc1c[nH]cn1)[C@@H](C)O)[C@@H](C)O)[C@@H](C)CC)[C@@H](C)CC)C(=O)N[C@@H](C)C(=O)N[C@H](C(=O)N[C@@H](CCCCN)C(=O)N[C@H](C(=O)N[C@H](C(=O)N[C@@H](CC(=O)O)C(=O)N[C@@H](CCCCN)C(=O)O)[C@@H](C)O)[C@@H](C)CC)[C@@H](C)O — AUCinf (immunoaffinity LC-MS/MS; healthy human subjects, plasma; intravenous infusion, 1 mg single dose, infused over 15 min): 2.93 nM·h
CCCC(CCC(=O)O)NC(=O)c1ccc2c(c1)OCO2 (stereo not drawn) — AUC(0-last) ratio (female Sprague-Dawley rats, plasma; oral, 200 mg/kg of parent drug; reference: 200 over 20 mg/kg dose): 11.8
Cc1cc2c(NC(=O)N[C@@H]3CC(C)(C)Oc4cc(C(F)(F)F)ccc43)c(C)ccc2cn1 — plasma concentration (Sprague-Dawley rat, male; oral, 100 µmol/kg, telemetry study): 700 ng/mL
CC(C)(O)c1ncc([S@](N)(=O)=NC(=O)Nc2c3c(cc4c2CCC4)CCC3)s1 — Tmax (human, plasma; oral, 3 mg, single dose, fasted, healthy volunteers): 45.6 min
